# Published values gathered from unrelated publications.
# ± marks the error that the study gave.
Compound,assay,test system,conditions,scale,quantity,value
CC[C@H](C)C(=O)N1CCC(NC(=O)Nc2ccc(OC(F)(F)F)c(F)c2)CC1,,"healthy volunteers, both sexes","oral, 8 mg, fed state",,subjects with any adverse event,14.3%
Cc1ncc2c(n1)CN(C(=O)Nc1nc(-c3cccs3)ccc1N)C2,general toxicity,male Sprague-Dawley rat,"oral, multiple doses, once daily",,NOAEL,45 mg/kg
C=Cc1c(C)c2cc3nc(c(CC(=O)O)c4[nH]c(cc5nc(cc1[nH]2)C(C)=C5CC)c(C)c4C(=O)O)[C@@H](CCC(=O)NCCCC[C@H](NC(C)=O)C(=O)N[C@@H](Cc1ccccc1)C(=O)N[C@@H](Cc1ccccc1)C(=O)N[C@H](C(=O)N[C@@H](CC(C)C)C(=O)N[C@@H](CCCCN)C(=O)N[C@@H](CO)C(=O)NCC(=O)N[C@@H](CCC(N)=O)C(=O)N[C@@H](Cc1ccc(O)cc1)C(=O)N[C@@H](C)C(=O)N[C@@H](CO)C(=O)N[C@@H](Cc1ccc(O)cc1)C(=O)N[C@@H](Cc1c[nH]cn1)C(=O)N[C@@H](CS)C(=O)N[C@@H](Cc1c[nH]c2ccccc12)C(=O)N[C@@H](CS)C(=O)N[C@@H](Cc1c[nH]c2ccccc12)C(=O)N[C@@H](CCCNC(=N)N)C(=O)N[C@@H](CC(=O)O)C(=O)N1CCC[C@H]1C(=O)NCC(=O)N[C@@H](CCCNC(=N)N)C(=O)N[C@@H](CO)C(=O)NCC(=O)NCC(=O)N[C@@H](CO)C(=O)N[C@@H](CCCCN)C(N)=O)C(C)C)[C@@H]3C,,"tumour-free mice, plasma","iv, 13 mg/kg",,half-life alpha,2.54 h
CC[C@H](C)[C@H](NC(=O)[C@H](C)NC(=O)[C@H](C)NC(=O)[C@H](CCC(N)=O)NC(=O)CNC(=O)[C@H](CC(C)C)NC(=O)[C@H](Cc1c[nH]cn1)NC(=O)[C@H](CCCCN)NC(=O)[C@H](C)NC(=O)CNC(=O)[C@H](CCCCN)NC(=O)[C@H](CCCNC(=N)N)NC(=O)[C@H](CC(C)C)NC(=O)[C@H](Cc1c[nH]c2ccccc12)NC(=O)[C@H](CCCCN)NC(=O)[C@H](CCCCN)NC(=O)[C@H](Cc1c[nH]c2ccccc12)NC(=O)CN)C(=O)N[C@@H](CCCCN)C(=O)NCC(=O)N[C@@H](CC(C)C)C(=O)N[C@@H](C)C(=O)N[C@@H](CO)C(=O)O,,zebrafish embryos,"1 h, 4, 28, 52 hpf",,acute toxic concentration,5 µg/mL
CCCCCCCCCCCCC(=O)O.O=C1CCCC2C3CCCN4CCCC(CN12)C34 (stereo not drawn),,water,"concentration not given, 303.15 K",,limiting apparent molar volume,427.52 ± 0.28 cm³/mol
CC(CCC(=O)NCC(=O)O)C1CCC2C3CCC4CC(OC5OC(C(=O)O)C(O)C(O)C5O)CCC4(C)C3CC(O)C12C (stereo not drawn),,"human, SLCO1B1 *5/*14, plasma","geometric mean, sex-adjusted",,plasma concentration,100 ng/mL
O=c1oc2cc(O)ccc2c2ccc(O)cc12,potentiometric titration,"water, extrapolated from methanol/water",25 °C,,pKa2,9.05
CCCCCCCCCCCCCCC(=O)N[C@@H](CCCCN)C(=O)N[C@@H](CCCCN)C(=O)N[C@@H](CCCCN)C(=O)N[C@@H](CCCCN)C(N)=O,,Galleria mellonella larvae,"50 mg/kg, 4 d",,survival,0%
CC[C@H](C)[C@H](NC(=O)[C@@H](NC(=O)[C@H](CC(N)=O)NC(=O)[C@H](CCC(N)=O)NC(=O)[C@@H]1CCCN1C(=O)[C@@H](NC(=O)[C@H](Cc1ccc(O)cc1)NC(=O)CNC(=O)[C@H](Cc1ccc(O)cc1)NC(=O)[C@H](Cc1c[nH]c2ccccc12)NC(=O)[C@H](Cc1c[nH]cn1)NC(=O)[C@H](Cc1ccc(O)cc1)NC(=O)CCOCCOCCOCCOCCOCCOCCC(=O)NCCCN(CCCNC(=O)CCOCCOCCOCCOCCOCCOCCC(=O)N[C@@H](Cc1ccc(O)cc1)C(=O)N[C@@H](Cc1c[nH]cn1)C(=O)N[C@@H](Cc1c[nH]c2ccccc12)C(=O)N[C@@H](Cc1ccc(O)cc1)C(=O)NCC(=O)N[C@@H](Cc1ccc(O)cc1)C(=O)N[C@H](C(=O)N1CCC[C@H]1C(=O)N[C@@H](CCC(N)=O)C(=O)N[C@@H](CC(N)=O)C(=O)N[C@H](C(=O)N[C@H](C(=O)O)[C@@H](C)CC)C(C)C)[C@@H](C)O)CC(=O)NCCCN(CCCNC(=O)CN(CCCNC(=O)CCOCCOCCOCCOCCOCCOCCC(=O)N[C@@H](Cc1ccc(O)cc1)C(=O)N[C@@H](Cc1c[nH]cn1)C(=O)N[C@@H](Cc1c[nH]c2ccccc12)C(=O)N[C@@H](Cc1ccc(O)cc1)C(=O)NCC(=O)N[C@@H](Cc1ccc(O)cc1)C(=O)N[C@H](C(=O)N1CCC[C@H]1C(=O)N[C@@H](CCC(N)=O)C(=O)N[C@@H](CC(N)=O)C(=O)N[C@H](C(=O)N[C@H](C(=O)O)[C@@H](C)CC)C(C)C)[C@@H](C)O)CCCNC(=O)CCOCCOCCOCCOCCOCCOCCC(=O)N[C@@H](Cc1ccc(O)cc1)C(=O)N[C@@H](Cc1c[nH]cn1)C(=O)N[C@@H](Cc1c[nH]c2ccccc12)C(=O)N[C@@H](Cc1ccc(O)cc1)C(=O)NCC(=O)N[C@@H](Cc1ccc(O)cc1)C(=O)N[C@H](C(=O)N1CCC[C@H]1C(=O)N[C@@H](CCC(N)=O)C(=O)N[C@@H](CC(N)=O)C(=O)N[C@H](C(=O)N[C@H](C(=O)O)[C@@H](C)CC)C(C)C)[C@@H](C)O)CC(=O)NCCOCCOCCOCCOCCC(=O)N[C@@H](CCCCNC(=O)CC[C@H](C(=O)O)N1CCN(CC(=O)O)CCN(CC(=O)O)CC1)C(N)=O)[C@@H](C)O)C(C)C)C(=O)O [gallium-68 labelled],,1-octanol/phosphate buffer,pH 7.4,,logD,-2.17 ± 0.21
COC(=O)C[C@](O)(CCCC(C)(C)OC(C)=O)C(=O)O[C@@H]1C(OC)=C[C@]23CCCN2CCc2cc4c(cc2[C@H]13)OCO4,,"CD1 mouse, bone marrow","oral, 1 mg/kg, 24 h, below quantification limit 1.00 ng/mL",,tissue concentration,not detected
CC(C)C[C@H](NC(=O)[C@H](CCCCN)NC(=O)[C@H](CCC(=O)O)NC(=O)[C@H](C)NC(=O)[C@@H](NC(=O)[C@H](CCCCN)NC(=O)[C@H](CC(=O)O)NC(=O)[C@H](Cc1ccc(O)cc1)NC(=O)[C@H](Cc1ccccc1)NC(=O)[C@H](C)NC(=O)[C@H](CCCCN)NC(=O)[C@H](CC(C)C)NC(=O)[C@H](Cc1c[nH]c2ccccc12)NC(=O)[C@@H](N)CC(=O)O)C(C)C)C(=O)N[C@@H](CCCCN)C(=O)N[C@@H](CCC(=O)O)C(=O)N[C@@H](C)C(=O)N[C@@H](Cc1ccccc1)C(=O)N1CCC[C@H]1C(=O)N[C@@H](CC(=O)O)C(=O)N[C@@H](Cc1c[nH]c2ccccc12)C(=O)N[C@@H](C)C(=O)N[C@@H](CCCCN)C(=O)N[C@@H](C)C(=O)N[C@@H](C)C(=O)N[C@@H](Cc1ccc(O)cc1)C(=O)N[C@@H](CC(=O)O)C(=O)N[C@@H](CCCCN)C(=O)N[C@@H](C)C(=O)N[C@@H](C)C(=O)N[C@@H](CCC(=O)O)C(=O)N[C@@H](CCCCN)C(=O)N[C@@H](C)C(=O)N[C@@H](CCCCN)C(=O)N[C@@H](CCC(=O)O)C(=O)N[C@@H](C)C(=O)N[C@@H](C)C(=O)O,,"cynomolgus monkey female, plasma","intravenous infusion, 8 mg/kg, day 1, 30 min infusion",,AUC(0-inf),541 µg·h/mL
CC(C)C[C@@H](NC(=O)[C@@H](CCCCN)NC(=O)CNC(=O)CNC(=O)[C@@H]1CSSC[C@H](N)C(=O)NCC(=O)N[C@@H](CCCNC(=N)N)C(=O)N[C@@H](CCCNC(=N)N)C(=O)N[C@@H](C)C(=O)NCC(=O)NCC(=O)N[C@@H](CO)C(=O)N1)C(=O)N[C@H](C)C(=O)N[C@H](CCCCN)C(=O)N[C@H](CC(C)C)C(=O)N[C@H](C)C(=O)N[C@H](CCCCN)C(=O)N[C@H](CCCCN)C(=O)N[C@H](CC(C)C)C(=O)N[C@H](C)C(=O)N[C@H](CCCCN)C(=O)N[C@H](CC(C)C)C(=O)N[C@H](C)C(=O)N[C@H](CCCCN)C(=O)O,,human,weekly schedule,,maximum tolerated dose,20 to 30 mg/m²
CC(C)[C@H](NC(=O)CNC(=O)[C@H](CCC(N)=O)NC(=O)[C@H](C)N)C(=O)O,,healthy male volunteers,"intravenous, 45 mg/kg/h, 2 h, added: LPS 2 ng/kg",,subjects with any AE,25%
CC(C)[C@H](NC(=O)CNC(=O)[C@H](CCC(N)=O)NC(=O)[C@H](C)N)C(=O)O,,human,"intravenous infusion, 45 mg/kg/h, 2 h infusion",,discontinued due to adverse events,0%
Cc1ccc2ccc3ccc(C)nc3c2n1.O.[99Tc+].[C-]#[O+].[C-]#[O+].[C-]#[O+],"RP-HPLC C18 column, item: MeCN adduct","MeCN:water 40:60, 0.1% TFA",isocratic elution,,capacity factor,8.9
C[C@H]1N=C(c2ccccc2F)c2cc(Br)ccc2-n2cnc(C(=O)OC3O[C@H](C(=O)O)[C@@H](O)[C@H](O)[C@H]3O)c21 (stereo partly drawn),,Swiss Webster mouse,"intravenous, 250 µg of parent drug, 0 to 48 h",baseline: dose,excretion in urine and feces,2.6 ± 0.54%
O=CN(CCCc1cn(-c2ccc(CN3CCOCC3)cc2)nn1)CCNc1ccnc2cc(Cl)ccc12,,monkey cells,,,CC50,> 100 µM
CC[C@H](C)[C@H](N)C(=O)N[C@H](C(=O)N[C@@H](CO)C(=O)N[C@H](C(=O)N[C@H](C(=O)NCC(=O)N[C@@H](CC(=O)O)C(=O)N[C@@H](Cc1c[nH]c2ccccc12)C(=O)N[C@H](C(=O)N[C@@H](CCCCN)C(=O)N[C@@H](CC(C)C)C(=O)N[C@H](C(=O)N[C@H](C(=O)N[C@@H](CC(=O)O)C(=O)N[C@H](C(=O)N[C@H](C(=O)N[C@@H](CC(N)=O)C(=O)N[C@@H](CCCCN)C(=O)N[C@@H](Cc1ccccc1)C(=O)N[C@H](C(=O)N[C@@H](CCCCN)C(=O)N[C@@H](CCCCN)C(=O)O)[C@@H](C)O)C(C)C)[C@@H](C)O)[C@@H](C)CC)[C@@H](C)CC)C(C)C)[C@@H](C)CC)[C@@H](C)O)[C@@H](C)CC,circular dichroism,POPC vesicles,pH 7.5,,fractional helicity,0.77
[11CH3]n1c(=O)n(CCCO)c(=O)c2c1nc(Oc1cccc(OC(F)(F)F)c1)n2Cc1ccc(Cl)cc1,ex vivo biodistribution,"Sprague Dawley rat, muscle",5 min post injection,,tracer uptake,0.22 ± 0.06 %ID/g
COc1cc(NC(=O)C(=O)c2c(C)n(Cc3ccc(Cl)cc3)c3ccc(C)cc23)ccn1,,"male cynomolgus monkey, plasma","oral, 10 mg/kg",,bioavailability,14.3%
Nc1ccn(CC2COP(=O)(OCCCCCCNC(=O)CCCCC3SCC4NC(=O)NC43)CO2)c(=O)n1 (mixture of isomers),,"rabbit, retina-choroid",,baseline: parent CDF,partition coefficient,4.9 fold

# For quick reference, copied from above:
Compound,assay,test system,conditions,scale,quantity,value
CC[C@H](C)[C@H](NC(=O)[C@@H](NC(=O)[C@H](CC(N)=O)NC(=O)[C@H](CCC(N)=O)NC(=O)[C@@H]1CCCN1C(=O)[C@@H](NC(=O)[C@H](Cc1ccc(O)cc1)NC(=O)CNC(=O)[C@H](Cc1ccc(O)cc1)NC(=O)[C@H](Cc1c[nH]c2ccccc12)NC(=O)[C@H](Cc1c[nH]cn1)NC(=O)[C@H](Cc1ccc(O)cc1)NC(=O)CCOCCOCCOCCOCCOCCOCCC(=O)NCCCN(CCCNC(=O)CCOCCOCCOCCOCCOCCOCCC(=O)N[C@@H](Cc1ccc(O)cc1)C(=O)N[C@@H](Cc1c[nH]cn1)C(=O)N[C@@H](Cc1c[nH]c2ccccc12)C(=O)N[C@@H](Cc1ccc(O)cc1)C(=O)NCC(=O)N[C@@H](Cc1ccc(O)cc1)C(=O)N[C@H](C(=O)N1CCC[C@H]1C(=O)N[C@@H](CCC(N)=O)C(=O)N[C@@H](CC(N)=O)C(=O)N[C@H](C(=O)N[C@H](C(=O)O)[C@@H](C)CC)C(C)C)[C@@H](C)O)CC(=O)NCCCN(CCCNC(=O)CN(CCCNC(=O)CCOCCOCCOCCOCCOCCOCCC(=O)N[C@@H](Cc1ccc(O)cc1)C(=O)N[C@@H](Cc1c[nH]cn1)C(=O)N[C@@H](Cc1c[nH]c2ccccc12)C(=O)N[C@@H](Cc1ccc(O)cc1)C(=O)NCC(=O)N[C@@H](Cc1ccc(O)cc1)C(=O)N[C@H](C(=O)N1CCC[C@H]1C(=O)N[C@@H](CCC(N)=O)C(=O)N[C@@H](CC(N)=O)C(=O)N[C@H](C(=O)N[C@H](C(=O)O)[C@@H](C)CC)C(C)C)[C@@H](C)O)CCCNC(=O)CCOCCOCCOCCOCCOCCOCCC(=O)N[C@@H](Cc1ccc(O)cc1)C(=O)N[C@@H](Cc1c[nH]cn1)C(=O)N[C@@H](Cc1c[nH]c2ccccc12)C(=O)N[C@@H](Cc1ccc(O)cc1)C(=O)NCC(=O)N[C@@H](Cc1ccc(O)cc1)C(=O)N[C@H](C(=O)N1CCC[C@H]1C(=O)N[C@@H](CCC(N)=O)C(=O)N[C@@H](CC(N)=O)C(=O)N[C@H](C(=O)N[C@H](C(=O)O)[C@@H](C)CC)C(C)C)[C@@H](C)O)CC(=O)NCCOCCOCCOCCOCCC(=O)N[C@@H](CCCCNC(=O)CC[C@H](C(=O)O)N1CCN(CC(=O)O)CCN(CC(=O)O)CC1)C(N)=O)[C@@H](C)O)C(C)C)C(=O)O [gallium-68 labelled],,1-octanol/phosphate buffer,pH 7.4,,logD,-2.17 ± 0.21
COC(=O)C[C@](O)(CCCC(C)(C)OC(C)=O)C(=O)O[C@@H]1C(OC)=C[C@]23CCCN2CCc2cc4c(cc2[C@H]13)OCO4,,"CD1 mouse, bone marrow","oral, 1 mg/kg, 24 h, below quantification limit 1.00 ng/mL",,tissue concentration,not detected
